Results of several laboratories.
Compare with care: the assays were run in different laboratories.

For O=S(=O)(N[C@H]1CCO[C@@H](C2c3ccc(F)cc3CCc3cc(F)ccc32)C1)c1ccc(OC(F)(F)F)cc1, the intrinsic clearance was 145 µL/min/mg (liver microsomes; 10 µM).
The intrinsic clearance of Cc1cc(C(=O)Nc2nc3cccc(C)c3n2[C@H]2CCCCN(C(=O)/C=C/CN(C)C)C2)ccn1 is reported as 65.5 µL/min/mg (mouse liver microsomes; mean value).
CCOC(=O)C12CC(N)(C1)C2 gave an intrinsic clearance of 140 µL/min/mg (human liver microsomes).
C/C(=N\OCCN(C)Cc1ccccc1)c1ccc(C(F)(F)F)cc1 gave an intrinsic clearance of 118 mL/min/kg (human liver microsomes; 1 µM, 45 min).
The intrinsic clearance of [2H]C1([2H])C[C@@H](C[C@@H](C#N)NC(=O)[C@@H]2[C@@H]3[C@H](CN2C(=O)[C@@H](NC(=O)C(F)(F)F)C(C)(C)C)C3(C)C)C(=O)N1 is reported as 89.5 µL/min/mg (mouse liver microsomes; microsomes 0.5 mg/mL).
O=C(Nc1cccc(C(=O)N2CCC(c3nc(-c4ccccc4)n[nH]3)CC2)c1)c1ccccc1 has an intrinsic clearance of 595 mL/min/kg (human liver microsomes; pH 7.4, added: NADPH).
For [2H]C1([2H])CC[C@@H](C[C@@H](C#N)NC(=O)[C@@H]2[C@@H]3[C@H](CN2C(=O)[C@@H](NC(=O)C(F)F)C(C)(C)C)C3(C)C)C(=O)N1, the intrinsic clearance was 39.5 mL/min/kg (rat hepatocytes; scaled to liver).
With O=S(=O)(N[C@H]1CCO[C@@H](C2c3ccccc3CCc3ccccc32)C1)c1ccc(OC(F)(F)F)cc1 the intrinsic clearance was 269 µL/min/mg (liver microsomes; 10 µM).
For O=C(O)Cc1ccccc1Nc1c(Cl)cccc1Cl, the intrinsic clearance was 127 µL/min/mg (human liver microsomes; 1 nM).
Cc1ccc2c(c1)nc(NC(=O)c1cccc(C(F)(F)F)c1)n2[C@H]1CC[C@H](N)CC1 gave an intrinsic clearance of 184 µL/min/mg (rat liver microsomes; mean value).
With CNC(=O)C1CCCN(C(=O)C2CC3CCC2N3C(=O)[C@@H]2C[C@@H](O)CN2C(=O)NCc2cccc(Cl)c2F)C1 (mixture of isomers) the intrinsic clearance was 26.1 µL/min/mg (human liver microsomes).

Some of these lines once more:
For O=C(O)Cc1ccccc1Nc1c(Cl)cccc1Cl, the intrinsic clearance was 127 µL/min/mg (human liver microsomes; 1 nM).
